Published values from different studies.
Every numbered part comes from another study and shows a few of its results, in no order.

Sample 1
Target: Centromere-binding protein 1, full length, N-terminal tag (CBF1, Saccharomyces cerevisiae, UniProt P17106, residues 1-351)
UniProt P17106, sequence (whole entry, looked up): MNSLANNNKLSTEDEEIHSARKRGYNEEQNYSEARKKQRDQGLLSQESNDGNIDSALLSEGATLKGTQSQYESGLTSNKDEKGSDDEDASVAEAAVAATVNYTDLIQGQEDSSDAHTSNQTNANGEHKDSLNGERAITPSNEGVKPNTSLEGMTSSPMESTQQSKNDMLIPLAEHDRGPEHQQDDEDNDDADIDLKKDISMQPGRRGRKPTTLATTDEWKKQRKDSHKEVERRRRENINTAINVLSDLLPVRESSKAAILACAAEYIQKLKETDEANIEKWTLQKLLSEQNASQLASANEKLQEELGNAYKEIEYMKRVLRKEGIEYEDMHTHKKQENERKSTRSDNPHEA
Method: protein-binding microarray
Molecule type: double-stranded DNA, one strand shown
Matrix: in vitro
Tested at: 0.8 µM
Setting: whole 60-bp probe, no competitor
Direction: higher = stronger binding
Strand	fluorescence intensity [a.u.]
CTAACAGGACCGCATCACGTCAGAATAGTTTTTTTCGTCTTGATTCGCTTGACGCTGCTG	543
CTATGGTATTAGCATCAGGTATACTTTAATTAATTCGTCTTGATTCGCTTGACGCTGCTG	501
CTACCTCGGAAAAACCTCCACGTGTTAGGTTATTTCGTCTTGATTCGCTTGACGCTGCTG	7860
GAATTTTAATTTCATGCCGTGATTCTTTAACTTTAGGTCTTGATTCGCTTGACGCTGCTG	571
CTACTCAGGTACAGTTGCATCAGGTTGATAGTTTTCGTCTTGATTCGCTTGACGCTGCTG	534
CCTAACTACTATATTCAGGAGATATAGCTTCGTACAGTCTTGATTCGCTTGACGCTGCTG	537
GAACATTCTGTGGTGAATGTGACTGAGCAGTTTTAGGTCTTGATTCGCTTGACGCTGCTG	627
CTATCAATATAAATACAGCTGATTACATATAAATTCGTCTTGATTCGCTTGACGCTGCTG	634
GAATTGAAATAAGAACACGTTGGGTATAATCTATAGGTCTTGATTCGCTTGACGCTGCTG	621
GAATATACTGTGGGAAAAATCACGTGCGAGAAATAGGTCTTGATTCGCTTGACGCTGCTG	14000
CTAAAAAACAGTCATCAGGTGTAATAGAAGCTATTCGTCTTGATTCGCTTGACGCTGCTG	653
CTAGGCAGCTCATTACTCGTGACGCAGCTTTAATTCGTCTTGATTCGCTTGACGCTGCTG	1050
CTAATCAACAGTTAAAACACCACCAATATTTCCTTCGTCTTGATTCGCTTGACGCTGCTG	514
CTAAGGGTGTTTCAGAAGGTGACTAAAATATCGTTCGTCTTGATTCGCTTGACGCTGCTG	623
GAACACGTTCACCGTTTTCACGTGCACAAATTCTAGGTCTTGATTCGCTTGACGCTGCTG	6360
CCTAACTACTATAATCTCCTGAGATAGCTTCGTACAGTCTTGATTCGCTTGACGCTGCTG	526
GAACTTCCTTAGCCTCACGTTTTTTTGTTCGCTTAGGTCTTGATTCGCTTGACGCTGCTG	600

Sample 2
Target: Prothrombin, mature alpha-thrombin (F2, Homo sapiens, UniProt P00734)
Method: aptamer microarray, sandwich
Molecule type: DNA with 2'F-ANA
Matrix: in vitro
Tested at: 200 nM
Setting: whole 15-mer aptamer, many near background
Together with: Cy3 exosite-II aptamer, 400 nM
Direction: higher = stronger binding
Strand: GGTTGGTGTGGTTGG
Modification	mean fluorescence intensity [a.u.]
2'F-ANA at 2 3 6 12	1120
2'F-ANA at 1 2 4 6 8 10 12	59.6
2'F-ANA at 2 3 5 7 8 9 11 12 13 14 15	62.6
2'F-ANA at 3 7 12 13	1550
2'F-ANA at 1 2 5 6 8 9 10 11 12 14	46.8
2'F-ANA at 1 2 4 5 8 10 11 12 14 15	49.7
2'F-ANA at 1 2 3 7 9 11 13	175
2'F-ANA at 2 6 7 12	719
2'F-ANA at 2 3 9 14 15	431
2'F-ANA at 2 3 5 7 9 10 12	85.2
2'F-ANA at 1 3 8 9 10 12	137
2'F-ANA at 2 3 4 5 7 8 9 10 12 14	48.9
2'F-ANA at 2 4 5 6 7 11 13 14	49.3
2'F-ANA at 1 7 8 9 10 14	44.7
2'F-ANA at 1 4 8 11 12 13 15	198
2'F-ANA at 2 6 8 11 15	284
2'F-ANA at 1 4 7 8 9 10 12 14	45.1
2'F-ANA at 5 6 7 8 10 11 12 13	52.4
2'F-ANA at 1 2 4 9 10 14 15	48.8
2'F-ANA at 2 7 9 12 14	207
2'F-ANA at 1 5 6 7 8 9 14 15	47.3
2'F-ANA at 3 7 8 10 13 14	454
2'F-ANA at 2 4 5 6 8 11 12 13 14	50.7
2'F-ANA at 1 2 3 4 5 6 7 8 11 12	114

Sample 3
Target: Histone acetyltransferase KAT6A, both winged helices, GST fusion (KAT6A, Homo sapiens, UniProt Q92794, residues 1-181)
Method: protein binding microarray
Molecule type: double-stranded DNA, one strand shown
Matrix: in vitro
Tested at: not given
Setting: 8-mer, flanks averaged, mean of 2 arrays, mostly near background
Baseline: not given
Direction: higher = stronger binding
Target sequence (chain): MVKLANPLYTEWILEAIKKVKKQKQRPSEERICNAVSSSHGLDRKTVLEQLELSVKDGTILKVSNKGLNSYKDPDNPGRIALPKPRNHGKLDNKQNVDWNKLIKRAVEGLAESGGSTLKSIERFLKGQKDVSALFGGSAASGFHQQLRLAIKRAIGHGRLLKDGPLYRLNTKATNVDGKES
Strand	E-score
AGGTACAC	-0.103
GCGCGAAA	0.231
AGCCAGCC	-0.275
TACCGACA	0.0602
AATTATCA	-0.00488
AGCGTCTA	-0.0554
ATAGCATA	-0.0496
ATGGAACG	-0.0847
AAATTATT	-0.0329
AAGGAAGT	-0.128
CTGCAGTA	-0.0977
ATTCGTGC	-0.0699
CCAGGGCC	-0.0163
CTGGAAAA	-0.0204
CAGTCACG	0.0508
GTAACAGA	-0.0355
CCCCACTC	-0.263
GACTCTCA	-0.0693
TAACCTTA	-0.12
CTCGAACA	-0.174
ACTTACAC	-0.0267
ACTAAAGC	-0.0357
TAAGGCCA	-0.0504
AGTCCACA	-0.0979
AATATTGT	-0.0233

Sample 4
Target: Fragile X messenger ribonucleoprotein 1, C-terminal low-complexity region (Fmr1, Mus musculus, UniProt P35922)
Method: RNA Bind-n-Seq
Molecule type: RNA
Matrix: in vitro
Tested at: 200 nM
Setting: whole 134-nt RNA, ends assumed
Together with: 150 mM KCl
Baseline: input library
Direction: higher = stronger binding
Strand	log2 enrichment
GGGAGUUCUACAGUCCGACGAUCUCCUGUGCUACACAUCGUAUGUACCGAAUCGGGGCCCCCGGGGCCCCCGGGCCCCCGGGAAAGUAUUAUGUUACGCCGUUCGGAUCUGCAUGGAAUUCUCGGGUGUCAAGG	-1.29
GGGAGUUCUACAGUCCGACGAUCAGUCCUGUGCUACACAUCGUAUGUACCGAAUCGGUUUUUUUGGAAAAAGGAAAAAGGAAAGUAUUAUGUUACGCCGUUCGGAUCUGCACUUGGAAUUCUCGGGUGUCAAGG	-1.33
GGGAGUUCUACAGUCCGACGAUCGCAGGAAGUAAAAACAAAUGGAAAUGCUUCGGAUAGUGGCAGGGGUGGGGGUUGCUAAGGAAAGGGUGAAAUGGGAGUGGGUAAAGAGUUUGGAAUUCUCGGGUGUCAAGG	0.124
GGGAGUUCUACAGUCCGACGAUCAAGUCCUGUGCUACACAUCGUAUGUACCGAAUCGGGGUUUGGGGUGGGGAAAGGGGAAAGUAUUAUGUUACGCCGUUCGGAUCUGCACUUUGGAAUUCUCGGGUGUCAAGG	0.98
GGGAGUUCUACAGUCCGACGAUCACCAUGCAGGUGGGCAUCUUUGGGAAGUGGGGCAAGGGGGGGAUAGGGAGUGGGGUAACACUUUGGGAACAGGUGGUCCCAGGUCGUUUCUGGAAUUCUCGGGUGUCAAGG	0.873
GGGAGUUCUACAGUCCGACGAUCGCAGGAAGUAAAAACAAAUGGAAAUGCUUCGGAUAGUGGCAGGGGUGGGGGUUGCUAAGGAAAGGUUGGGAUGGGAGUGGGUAAAGAGUUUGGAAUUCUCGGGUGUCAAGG	0.145
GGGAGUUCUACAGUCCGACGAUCUGGCCCUGGUGGCAUGCGGGGAGGAACAGGUGGCCUCAUGGAUCGUGGUGGUCCCGGUGGAAUGUUCAGAGGUGGCCGUGGUGGAGACAGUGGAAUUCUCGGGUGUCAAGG	-0.0437
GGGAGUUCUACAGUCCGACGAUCAAGUCCUGUGCUACACAUCGUAUGUACCGAAUCGGGUUUUUGGGAGGGUUUUUGGGAAAGUAUUAUGUUACGCCGUUCGGAUCUGCACUUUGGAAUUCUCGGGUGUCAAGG	0.586
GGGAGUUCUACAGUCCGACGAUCUAACUGUAGAGGAGGAUCUGAUGGAUAUGGCAGUGGACGUGGAUUUGGGGAUGGCUAUAAUGGGUAUGGAGGAGGACCUGGAGGUGGCAAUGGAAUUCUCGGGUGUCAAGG	0.399
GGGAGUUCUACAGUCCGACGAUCAGUCCUGUGCUACACAUCGUAUGUACCGAAUCAAACCCAAACCCAAAUUUUUUUAAAAAAGUAUUAUGUUACGCCGUUCGGAUCUGCACUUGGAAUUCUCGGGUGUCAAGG	-0.296
